# Measured values of several laboratories.
# Every numbered part comes from another study and shows a few of its results, in no order. Positions count from the first letter of the parent shown.

# Sample 1
# Target: Histone acetyltransferase KAT6A, winged helix 2, GST fusion (KAT6A, Homo sapiens, UniProt Q92794, residues 85-181)
# Method: protein binding microarray
# Form: double-stranded DNA, one strand shown
# Sample: in vitro
# Tested at: not given
# Setting: 8-mer, flanks averaged, mean of 2 arrays, mostly near background
# Reference: not given
# Direction: higher = stronger binding
# Construct (chain): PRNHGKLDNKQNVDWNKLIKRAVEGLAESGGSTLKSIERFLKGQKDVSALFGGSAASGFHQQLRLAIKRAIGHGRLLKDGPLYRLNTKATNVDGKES
Sequence,E-score
ACGTCACA,-0.21
GGGACGCA,0.0448
AAACTTGC,0.0895
CAGGATGA,0.0136
ACGCGGTG,-0.0403
CGTAAAGC,-0.174

# Sample 2
# Target: Interferon regulatory factor 7, full length, phosphomimetic (IRF7, Homo sapiens, UniProt Q92985, residues 1-503, S471D/S472D/S475D/S476D/S477D/S483D/S484D/S487D)
# UniProt Q92985, sequence (whole entry, unmodified, looked up): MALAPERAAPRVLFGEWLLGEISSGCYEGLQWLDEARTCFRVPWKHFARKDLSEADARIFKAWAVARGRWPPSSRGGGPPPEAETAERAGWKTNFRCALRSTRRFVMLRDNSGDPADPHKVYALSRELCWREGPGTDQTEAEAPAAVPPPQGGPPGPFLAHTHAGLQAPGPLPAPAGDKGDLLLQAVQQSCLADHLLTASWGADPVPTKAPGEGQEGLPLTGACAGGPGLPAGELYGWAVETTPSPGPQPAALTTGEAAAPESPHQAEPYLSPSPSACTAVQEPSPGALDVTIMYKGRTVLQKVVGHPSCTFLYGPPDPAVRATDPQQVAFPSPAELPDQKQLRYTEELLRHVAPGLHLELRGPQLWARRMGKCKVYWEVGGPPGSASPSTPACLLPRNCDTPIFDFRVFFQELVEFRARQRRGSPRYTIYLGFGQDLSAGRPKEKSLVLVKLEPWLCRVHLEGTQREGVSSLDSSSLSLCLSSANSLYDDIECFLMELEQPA
# Method: protein-binding microarray
# Form: double-stranded DNA, one strand shown
# Sample: in vitro
# Tested at: 2200 nM top
# Setting: 60-bp whole probe
# Added: salmon DNA 0.4 mg/ml
# Reference: random background probes
# Direction: higher = stronger binding
# Shared flanks, not repeated: GCCTAGCAC … GTCTTGATTCGCTTGACGCTGCTG
Sequence,fitted relative affinity [z-score]
TCCTCTTTCTCTGCTACCCTTGTGCTA,2.84
GACGAACTGGGGTTTCGAAACGTGCTA,1.44
GACGGATTCCTTCTCCTGACGTGCTAG,1.39
CACGAACTGAGTATCGAGACGTGCTAG,0.254
CTCGCCTGGGGATGCTAACAGTGCTAG,-0.459
GACGGACTGCTTATCCTGAGGTGCTAG,-0.0851

# Sample 3
# Target: CCNE2, cyclin fold, Cln2 fusion (human)
# Method: yeast growth competition, sequencing
# Sample: yeast
# Setting: strong parent motif
# Reference: not given
# Direction: higher = stronger binding
# Starting sequence: PKN2 docking peptide (human); VSAVRKLDFSDTM
Change,normalised enrichment score
T12W,5.49
T12D,3.91
F9T,0.24
S2A,3.98
D8Q,3.48
K6E,1.08

# Further values, each from its own experiment
Substance,target,assay,test system,conditions,scale,quantity,result
"PhoQ, residues 284 288 289 292 302 303 SSTLLI","PhoP, residues 12 14 15 18 19 NFCKL (Escherichia coli, UniProt P23836)","Sort-seq, refers to: YFP reporter",E. coli,"PhoQ-PhoP variant library, added: 10 µM Mg2+","reference: high Mg2+ state, higher = stronger signaling",fold induction,2.88

# Excerpt of the above (sample 2):
Sequence,fitted relative affinity [z-score]
CACGAACTGAGTATCGAGACGTGCTAG,0.254
CTCGCCTGGGGATGCTAACAGTGCTAG,-0.459
GACGGACTGCTTATCCTGAGGTGCTAG,-0.0851
